{"data": "Experimental data of several laboratories", "note": "Parts stem from different laboratories: compare values within a part only.", "chain of UniProt P52564 (whole entry, looked up)": "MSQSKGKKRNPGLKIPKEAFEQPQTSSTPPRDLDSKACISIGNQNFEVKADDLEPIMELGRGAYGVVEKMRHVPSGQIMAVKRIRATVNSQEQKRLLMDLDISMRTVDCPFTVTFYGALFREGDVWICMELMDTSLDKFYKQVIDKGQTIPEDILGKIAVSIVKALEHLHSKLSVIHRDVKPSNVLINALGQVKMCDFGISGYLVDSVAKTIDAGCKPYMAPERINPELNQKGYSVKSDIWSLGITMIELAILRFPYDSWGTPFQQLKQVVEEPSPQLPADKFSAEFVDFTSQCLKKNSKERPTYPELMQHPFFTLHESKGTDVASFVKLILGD", "chain of UniProt P07948 (whole entry, looked up)": "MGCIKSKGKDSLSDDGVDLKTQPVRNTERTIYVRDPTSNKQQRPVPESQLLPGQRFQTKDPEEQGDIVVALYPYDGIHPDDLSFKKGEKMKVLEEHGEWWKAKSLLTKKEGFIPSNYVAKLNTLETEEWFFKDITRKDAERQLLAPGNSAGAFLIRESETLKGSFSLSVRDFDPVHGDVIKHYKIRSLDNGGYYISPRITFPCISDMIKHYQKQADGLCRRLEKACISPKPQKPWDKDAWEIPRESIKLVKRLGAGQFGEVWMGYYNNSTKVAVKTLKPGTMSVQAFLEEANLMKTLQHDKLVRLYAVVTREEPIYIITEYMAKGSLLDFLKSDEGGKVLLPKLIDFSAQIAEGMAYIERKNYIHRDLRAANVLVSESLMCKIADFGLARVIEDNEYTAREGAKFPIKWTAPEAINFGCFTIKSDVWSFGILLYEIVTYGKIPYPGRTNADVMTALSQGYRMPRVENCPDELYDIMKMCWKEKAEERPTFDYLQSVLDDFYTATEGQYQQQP", "chain of UniProt P25021 (whole entry, looked up)": "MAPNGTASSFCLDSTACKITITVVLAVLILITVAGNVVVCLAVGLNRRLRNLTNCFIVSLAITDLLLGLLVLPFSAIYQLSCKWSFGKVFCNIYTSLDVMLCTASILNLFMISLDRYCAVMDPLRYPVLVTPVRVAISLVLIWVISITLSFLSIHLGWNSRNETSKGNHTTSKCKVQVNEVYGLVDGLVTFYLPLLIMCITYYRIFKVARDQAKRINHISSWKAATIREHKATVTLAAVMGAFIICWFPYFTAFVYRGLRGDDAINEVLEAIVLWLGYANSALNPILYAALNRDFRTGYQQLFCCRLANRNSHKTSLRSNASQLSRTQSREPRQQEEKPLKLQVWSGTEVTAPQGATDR", "chain of UniProt P68400 (whole entry, looked up)": "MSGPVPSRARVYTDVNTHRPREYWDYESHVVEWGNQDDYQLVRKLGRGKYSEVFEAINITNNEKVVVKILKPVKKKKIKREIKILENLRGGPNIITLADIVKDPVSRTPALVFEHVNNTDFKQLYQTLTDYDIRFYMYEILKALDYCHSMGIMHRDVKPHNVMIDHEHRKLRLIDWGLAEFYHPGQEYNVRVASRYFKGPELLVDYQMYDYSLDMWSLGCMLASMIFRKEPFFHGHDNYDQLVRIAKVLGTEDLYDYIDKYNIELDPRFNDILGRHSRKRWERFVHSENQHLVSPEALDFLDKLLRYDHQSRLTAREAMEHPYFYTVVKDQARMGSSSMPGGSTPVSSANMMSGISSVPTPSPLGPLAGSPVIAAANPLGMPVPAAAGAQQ", "chain of UniProt P25100 (whole entry, looked up)": "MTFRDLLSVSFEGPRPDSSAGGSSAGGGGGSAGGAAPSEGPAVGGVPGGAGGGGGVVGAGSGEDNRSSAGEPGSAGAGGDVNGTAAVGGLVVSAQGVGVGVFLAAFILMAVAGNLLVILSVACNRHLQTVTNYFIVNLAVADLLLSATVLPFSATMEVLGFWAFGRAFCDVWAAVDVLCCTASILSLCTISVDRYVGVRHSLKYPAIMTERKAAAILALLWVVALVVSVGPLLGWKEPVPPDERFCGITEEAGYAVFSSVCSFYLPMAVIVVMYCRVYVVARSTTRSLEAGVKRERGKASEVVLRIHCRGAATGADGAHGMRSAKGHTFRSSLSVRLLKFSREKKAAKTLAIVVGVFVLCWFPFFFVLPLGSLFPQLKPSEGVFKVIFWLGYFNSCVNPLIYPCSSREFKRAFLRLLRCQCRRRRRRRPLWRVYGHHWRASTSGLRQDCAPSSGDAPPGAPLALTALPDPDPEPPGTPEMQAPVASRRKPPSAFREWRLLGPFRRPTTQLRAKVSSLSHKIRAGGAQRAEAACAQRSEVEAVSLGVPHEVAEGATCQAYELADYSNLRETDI", "chain of UniProt P51957 (whole entry, looked up)": "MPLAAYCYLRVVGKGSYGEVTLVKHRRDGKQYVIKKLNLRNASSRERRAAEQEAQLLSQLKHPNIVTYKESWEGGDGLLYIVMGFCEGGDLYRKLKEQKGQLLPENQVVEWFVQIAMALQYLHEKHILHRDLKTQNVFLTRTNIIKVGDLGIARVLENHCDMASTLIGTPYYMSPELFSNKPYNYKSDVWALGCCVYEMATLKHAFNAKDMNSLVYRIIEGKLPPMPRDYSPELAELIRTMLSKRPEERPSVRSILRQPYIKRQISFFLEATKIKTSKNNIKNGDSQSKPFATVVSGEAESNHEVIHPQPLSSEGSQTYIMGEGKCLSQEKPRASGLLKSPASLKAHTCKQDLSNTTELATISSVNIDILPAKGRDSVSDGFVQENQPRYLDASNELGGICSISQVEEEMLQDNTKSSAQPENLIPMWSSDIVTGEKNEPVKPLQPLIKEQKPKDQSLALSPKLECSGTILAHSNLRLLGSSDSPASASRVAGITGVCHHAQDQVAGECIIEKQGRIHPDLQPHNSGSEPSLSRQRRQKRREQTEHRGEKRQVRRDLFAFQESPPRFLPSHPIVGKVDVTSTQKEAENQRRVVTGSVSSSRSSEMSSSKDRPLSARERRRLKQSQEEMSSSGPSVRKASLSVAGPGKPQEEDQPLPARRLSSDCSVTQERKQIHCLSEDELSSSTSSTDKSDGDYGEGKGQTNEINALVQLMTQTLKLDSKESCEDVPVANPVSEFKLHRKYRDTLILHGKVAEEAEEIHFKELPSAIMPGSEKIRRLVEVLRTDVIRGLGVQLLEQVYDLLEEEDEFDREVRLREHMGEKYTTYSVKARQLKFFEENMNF", "chain of UniProt Q9Y243 (whole entry, looked up)": "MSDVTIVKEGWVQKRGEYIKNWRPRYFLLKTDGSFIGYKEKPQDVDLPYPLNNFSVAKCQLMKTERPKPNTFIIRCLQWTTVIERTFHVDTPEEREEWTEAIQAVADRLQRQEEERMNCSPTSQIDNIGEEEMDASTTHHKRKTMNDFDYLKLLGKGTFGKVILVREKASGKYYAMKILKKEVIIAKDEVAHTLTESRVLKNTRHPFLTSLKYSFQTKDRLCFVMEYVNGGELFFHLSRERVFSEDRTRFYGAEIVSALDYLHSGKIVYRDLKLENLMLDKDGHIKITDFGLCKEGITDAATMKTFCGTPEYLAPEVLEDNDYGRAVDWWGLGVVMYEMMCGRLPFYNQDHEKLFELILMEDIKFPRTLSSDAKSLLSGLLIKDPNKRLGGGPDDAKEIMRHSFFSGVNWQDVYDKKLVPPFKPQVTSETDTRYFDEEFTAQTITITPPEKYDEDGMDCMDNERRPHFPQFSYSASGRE", "chain of UniProt O14757 (whole entry, looked up)": "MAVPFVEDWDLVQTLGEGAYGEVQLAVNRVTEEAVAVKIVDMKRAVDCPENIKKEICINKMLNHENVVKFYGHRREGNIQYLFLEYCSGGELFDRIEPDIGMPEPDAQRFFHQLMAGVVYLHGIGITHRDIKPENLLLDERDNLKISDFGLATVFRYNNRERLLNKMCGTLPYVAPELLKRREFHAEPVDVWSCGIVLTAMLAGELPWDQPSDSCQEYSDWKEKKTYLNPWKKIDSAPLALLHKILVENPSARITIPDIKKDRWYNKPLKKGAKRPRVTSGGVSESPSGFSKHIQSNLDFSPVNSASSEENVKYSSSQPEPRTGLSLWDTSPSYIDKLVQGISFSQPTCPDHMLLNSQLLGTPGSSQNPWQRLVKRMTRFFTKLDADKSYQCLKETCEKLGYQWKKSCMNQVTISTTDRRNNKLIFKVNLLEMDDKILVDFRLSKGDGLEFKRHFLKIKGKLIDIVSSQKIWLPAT", "chain of UniProt P50750 (whole entry, looked up)": "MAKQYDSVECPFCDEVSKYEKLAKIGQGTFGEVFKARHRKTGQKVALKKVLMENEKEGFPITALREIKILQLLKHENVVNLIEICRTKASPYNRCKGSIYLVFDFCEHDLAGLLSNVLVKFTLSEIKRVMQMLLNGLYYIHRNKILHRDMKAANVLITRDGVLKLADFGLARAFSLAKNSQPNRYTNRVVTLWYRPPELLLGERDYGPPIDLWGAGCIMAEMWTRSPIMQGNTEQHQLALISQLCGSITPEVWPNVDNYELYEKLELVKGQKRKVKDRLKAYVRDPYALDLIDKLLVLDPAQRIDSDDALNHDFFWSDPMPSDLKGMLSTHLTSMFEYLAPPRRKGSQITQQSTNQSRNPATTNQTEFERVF"}
{"data": "Set 1", "SMILES": "CC(C)[C@H](CO)Nc1nc(Nc2cccc(Cl)c2)c2ncn(C(C)C)c2n1", "effect on": "enzyme activity", "mode": "inhibitor", "tested at": "0.5 µM", "relative to": "control"}
{"target": "LYN (Homo sapiens, UniProt P07948)", "remaining activity": "60.2%"}
{"target": "CSNK1A1 (Homo sapiens, UniProt P48729)", "remaining activity": "91.8%"}
{"target": "MKNK2 (Homo sapiens, UniProt Q9HBH9)", "remaining activity": "87.5%"}
{"target": "MAPK13 (Homo sapiens, UniProt O15264)", "remaining activity": "122%"}
{"target": "PRKG1 (Homo sapiens, UniProt Q13976)", "remaining activity": "71.4%"}
{"target": "LRRK2 (Homo sapiens, UniProt Q5S007)", "remaining activity": "77.7%"}
{"target": "BTK (Homo sapiens, UniProt Q06187)", "remaining activity": "75.6%"}
{"target": "MAP2K6 (Homo sapiens, UniProt P52564)", "remaining activity": "105%"}
{"target": "STK38 (Homo sapiens, UniProt Q15208)", "remaining activity": "90.5%"}
{"target": "PLK2 (Homo sapiens, UniProt Q9NYY3)", "remaining activity": "102%"}
{"target": "IRAK4 (Homo sapiens, UniProt Q9NWZ3)", "remaining activity": "88.6%"}
{"target": "Cyclin-dependent kinase 9, with cyclin T1 (CDK9, Homo sapiens, UniProt P50750)", "remaining activity": "65%"}
{"target": "CHEK1 (Homo sapiens, UniProt O14757)", "remaining activity": "97.9%"}
{"target": "WNK2 (Homo sapiens, UniProt Q9Y3S1)", "remaining activity": "92.4%"}
{"target": "PRKCI (Homo sapiens, UniProt P41743)", "remaining activity": "96.6%"}
{"target": "MAP3K10 (Homo sapiens, UniProt Q02779)", "remaining activity": "98%"}
{"target": "MAP4K2 (Homo sapiens, UniProt Q12851)", "remaining activity": "97.6%"}
{"target": "CSNK2A1 (Homo sapiens, UniProt P68400)", "remaining activity": "101%"}
{"target": "EPHA5 (Homo sapiens, UniProt P54756)", "remaining activity": "87.9%"}
{"target": "PRKCD (Homo sapiens, UniProt Q05655)", "remaining activity": "104%"}
{"target": "KIT (Homo sapiens, UniProt P10721)", "remaining activity": "91%"}
{"target": "NEK4 (Homo sapiens, UniProt P51957)", "remaining activity": "94.4%"}
{"target": "MAPK12 (Homo sapiens, UniProt P53778)", "remaining activity": "106%"}
{"target": "AKT3 (Homo sapiens, UniProt Q9Y243)", "remaining activity": "102%"}
{"data": "Set 2", "target": "Calcium/calmodulin-dependent protein kinase type II subunit alpha (CAMK2A, Homo sapiens, UniProt Q9UQM7)", "effect on": "enzyme activity", "mode": "inhibitor", "tested at": "10 µM", "chain of UniProt Q9UQM7 (whole entry, looked up)": "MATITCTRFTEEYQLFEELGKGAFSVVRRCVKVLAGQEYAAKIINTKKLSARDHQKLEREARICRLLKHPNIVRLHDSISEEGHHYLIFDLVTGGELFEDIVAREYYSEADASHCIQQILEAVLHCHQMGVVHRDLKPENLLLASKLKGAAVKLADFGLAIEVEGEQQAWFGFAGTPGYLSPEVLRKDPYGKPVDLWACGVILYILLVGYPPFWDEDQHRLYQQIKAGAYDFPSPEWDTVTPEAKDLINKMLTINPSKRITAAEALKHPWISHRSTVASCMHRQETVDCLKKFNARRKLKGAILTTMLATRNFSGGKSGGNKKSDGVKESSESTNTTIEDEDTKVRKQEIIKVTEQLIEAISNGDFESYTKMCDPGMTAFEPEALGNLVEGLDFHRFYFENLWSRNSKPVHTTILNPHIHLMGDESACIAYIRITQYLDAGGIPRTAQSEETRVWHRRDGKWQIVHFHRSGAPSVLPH"}
{"Compound": "Nc1ncnc2c1ncn2[C@@H]1O[C@H](CSCC[C@H](N)C(=O)O)[C@@H](O)[C@H]1O", "inhibition [%]": 0}
{"Compound": "Cc1ccc(-c2ccccc2)cc1", "inhibition [%]": -16}
{"Compound": "COc1cc2c(cc1OC)[C@@H](Cc1ccc(O)cc1)N(C)CC2", "inhibition [%]": -20}
{"Compound": "COc1cc(O)c(C(C)=O)c(OC)c1", "inhibition [%]": -22}
{"Compound": "COCCCOc1ccnc(C[S+]([O-])c2nc3ccccc3[nH]2)c1C (stereo not drawn)", "inhibition [%]": -4}
{"Compound": "CC(C)=CCC[C@](C)(O[C@@H]1O[C@H](CO)[C@@H](O)[C@H](O)[C@H]1O)[C@H]1CC[C@]2(C)[C@@H]1[C@H](O)C[C@@H]1[C@@]3(C)CC[C@H](O)C(C)(C)[C@@H]3CC[C@]12C", "inhibition [%]": -25}
{"Compound": "O=c1[nH]cc([C@@H]2O[C@H](CO)[C@@H](O)[C@H]2O)c(=O)[nH]1", "inhibition [%]": -11}
{"Compound": "CCCSc1ccc2[nH]c(NC(=O)OC)nc2c1", "inhibition [%]": -12}
{"data": "Set 3", "cell line": "A-375", "tested at": "100 µM", "time": "18 h"}
{"Compound": "C[C@H](CCC(=O)NCCS(=O)(=O)O)[C@H]1CC[C@H]2[C@@H]3[C@@H](O)C[C@@H]4C[C@H](O)CC[C@]4(C)[C@H]3CC[C@]12C", "viability": "95.9%"}
{"Compound": "CC(=O)Oc1cc(C(F)(F)F)ccc1C(=O)O", "viability": "79.2%"}
{"Compound": "NS(=O)(=O)c1cc2c(cc1C(F)(F)F)NC(Cc1ccccc1)NS2(=O)=O (stereo not drawn)", "viability": "74.1%"}
{"Compound": "CN(C)CCc1c[nH]c2ccc(CS(=O)(=O)N3CCCC3)cc12", "viability": "95.2%"}
{"Compound": "O=C(Nc1ccccc1)c1ccccc1O", "viability": "41.5%"}
{"Compound": "CCN1CCN(Cc2ccc(Nc3ncc(F)c(-c4cc(F)c5nc(C)n(C(C)C)c5c4)n3)nc2)CC1", "viability": "105%"}
{"Compound": "NC[C@@H]1O[C@H](O[C@H]2[C@@H](O)[C@H](O[C@@H]3[C@@H](O)[C@H](N)C[C@H](N)[C@H]3O[C@H]3O[C@H](CO)[C@@H](O)[C@H](O)[C@H]3N)O[C@@H]2CO)[C@H](N)[C@@H](O)[C@@H]1O", "viability": "94%"}
{"Compound": "CC(=O)N(CC(O)CO)c1c(I)c(C(=O)NCC(O)CO)c(I)c(C(=O)NCC(O)CO)c1I (mixture of isomers)", "viability": "94.5%"}
{"Compound": "CCOc1nc2cccc(C(=O)OC(C)OC(=O)OC3CCCCC3)c2n1Cc1ccc(-c2ccccc2-c2nnn[nH]2)cc1 (stereo not drawn)", "viability": "10.8%"}
{"Compound": "CCOc1ccc2ccccc2c1C(=O)N[C@@H]1C(=O)N2[C@@H]1SC(C)(C)[C@@H]2C(=O)O", "viability": "89%"}
{"Compound": "OC[C@H]1O[C@@H](Oc2ccc(O)cc2)[C@H](O)[C@@H](O)[C@@H]1O", "viability": "100%"}
{"Compound": "CO[C@]12C[C@@H](COC(=O)c3cncc(Br)c3)CN(C)[C@@H]1Cc1cn(C)c3cccc2c13", "viability": "10.3%"}
{"data": "Set 4", "Structure (SMILES)": "CNC(=O)c1cc(C(=O)N[C@H]2[C@@H]3COC[C@@H]32)cc2c1O[C@H](CF)[C@H]2c1ccccc1", "tested at": "10 µM"}
{"target": "HRH2 (Homo sapiens, UniProt P25021)", "effect on": "binding", "method": "radioligand binding", "inhibition": "-3.94%"}
{"target": "DRD1 (Homo sapiens, UniProt P21728)", "effect on": "binding", "method": "radioligand binding", "inhibition": "9.7%"}
{"target": "ADRA2C (Homo sapiens, UniProt P18825)", "effect on": "binding", "method": "radioligand binding", "inhibition": "8.26%"}
{"target": "ADRA2B (Homo sapiens, UniProt P18089)", "effect on": "binding", "method": "radioligand binding", "inhibition": "12.5%"}
{"target": "HTR3A (Homo sapiens, UniProt P46098)", "effect on": "cell-free assay", "inhibition": "20.2%"}
{"target": "CHRM2 (Homo sapiens, UniProt P08172)", "effect on": "binding", "method": "radioligand binding", "inhibition": "-5.52%"}
{"target": "HRH4 (Homo sapiens, UniProt Q9H3N8)", "effect on": "binding", "method": "radioligand binding", "inhibition": "9.36%"}
{"target": "CHRM4 (Homo sapiens, UniProt P08173)", "effect on": "binding", "method": "radioligand binding", "inhibition": "2.78%"}
{"target": "ADRB3 (Homo sapiens, UniProt P13945)", "effect on": "binding", "method": "radioligand binding", "inhibition": "15.5%"}
{"target": "ADRA1D (Homo sapiens, UniProt P25100)", "effect on": "binding", "method": "radioligand binding", "inhibition": "3.51%"}
{"target": "ADRA1B (Homo sapiens, UniProt P35368)", "effect on": "binding", "method": "radioligand binding", "inhibition": "1.49%"}
{"target": "HRH1 (Homo sapiens, UniProt P35367)", "effect on": "binding", "method": "radioligand binding", "inhibition": "-26.9%"}
{"target": "HTR7 (Homo sapiens, UniProt P34969)", "effect on": "binding", "method": "radioligand binding", "inhibition": "13.6%"}
{"note": "Some of these lines once more (set 3):"}
{"Compound": "CC(=O)Oc1cc(C(F)(F)F)ccc1C(=O)O", "viability": "79.2%"}
{"Compound": "NC[C@@H]1O[C@H](O[C@H]2[C@@H](O)[C@H](O[C@@H]3[C@@H](O)[C@H](N)C[C@H](N)[C@H]3O[C@H]3O[C@H](CO)[C@@H](O)[C@H](O)[C@H]3N)O[C@@H]2CO)[C@H](N)[C@@H](O)[C@@H]1O", "viability": "94%"}
{"Compound": "CC(=O)N(CC(O)CO)c1c(I)c(C(=O)NCC(O)CO)c(I)c(C(=O)NCC(O)CO)c1I (mixture of isomers)", "viability": "94.5%"}
{"Compound": "CCOc1ccc2ccccc2c1C(=O)N[C@@H]1C(=O)N2[C@@H]1SC(C)(C)[C@@H]2C(=O)O", "viability": "89%"}
{"Compound": "C[C@H](CCC(=O)NCCS(=O)(=O)O)[C@H]1CC[C@H]2[C@@H]3[C@@H](O)C[C@@H]4C[C@H](O)CC[C@]4(C)[C@H]3CC[C@]12C", "viability": "95.9%"}
{"Compound": "O=C(Nc1ccccc1)c1ccccc1O", "viability": "41.5%"}
